Measured values gathered from unrelated publications.
Lines come from different studies, so protocols differ. Numbers after ± are the reported error.

[O-][N+]1=C(c2ccc(Cl)cc2)C2=NCCCCN2c2ccccc21
MIC (Clostridioides difficile; microbial growth; ATCC43255): 4 µg/mL

C=C(NC(=O)C(=C)NC(=O)c1csc(C2=NC3c4csc(n4)C4NC(=O)c5csc(n5)C(C(C)(O)C(C)O)NC(=O)C5CSC(=N5)C(=CC)NC(=O)C(C(C)O)NC(=O)c5csc(n5)C3(CC2)NC(=O)C(C)NC(=O)C(=C)NC(=O)C(Cc2ccccc2)NC(=O)C(C(C)CC)NC2C=Cc3c(C(C)O)cc(nc3C2O)C(=O)OC4C)n1)C(N)=O (stereo not drawn)
MIC (Bacillus sp.; broth microdilution; ATCC 27859; 18 h, 37 °C): 0.087 µg/mL

C[C@@H](c1ccn(Cc2ccc(I)cc2)n1)[C@](O)(Cn1cnnn1)c1ccc(F)cc1F
MIC (Candidozyma auris; growth; 791 drug-resistant isolate; 24 h, 30 °C, ≥50% inhibition): 1 µg/mL

CC(=O)OC1C(C)C(OC2CC3OCOC3C(C)O2)C=COC2(C)Oc3c(C)c(O)c4c(c3C2=O)C(=O)C=C(NC(=O)C(C)=CC=CC(C(C)OC(=O)C(C)(C)CC(=O)O)C(O)C(C)C(O)C1C)C4=O (stereo not drawn)
MIC (Serratia marcescens Serratia marcescens; NCTC 10211): > 128 µg/mL

CN[C@@H]1[C@H](O)[C@H](NC)[C@H]2O[C@]3(O)[C@H](O[C@@H]2[C@H]1O)O[C@H](C)C[C@@]3(O)CNCc1ccc(OC(F)(F)F)cc1
MIC (Streptococcus pneumoniae; OVA2 drug resistant): 6 µg/mL

CC[C@H](C)[C@H](NC(=O)[C@H](CCCCN)NC(=O)[C@H](CCCCN)NC(=O)[C@H](Cc1ccccc1)NC(=O)[C@H](Cc1ccccc1)NC(=O)[C@H](CCCCN)NC(=O)[C@H](CCCCN)NC(=O)[C@H](Cc1ccccc1)NC(=O)[C@H](CCCNC(=N)N)NC(=O)[C@@H](N)CCCCN)C(=O)N[C@@H](CCCCN)C(=O)N[C@@H](CCCCN)C(=O)N[C@@H](CO)C(=O)N[C@H](C(=O)N[C@@H](CCCCN)C(=O)N[C@@H](CCCCN)C(=O)N[C@@H](CCCNC(=N)N)C(=O)N[C@H](C(=O)N[C@@H](CCCCN)C(=O)N[C@@H](CCCCN)C(=O)N[C@@H](CC(C)C)C(=O)N[C@@H](Cc1ccccc1)C(=O)N[C@@H](CCCCN)C(=O)N[C@@H](CCCCN)C(=O)N1CCC[C@H]1C(=O)N[C@@H](CCCNC(=N)N)C(=O)N[C@H](C(=O)N[C@H](C(=O)N1CCC[C@H]1C(=O)N[C@H](C(=O)N[C@@H](CO)C(=O)N[C@H](C(=O)N1CCC[C@H]1C(=O)N[C@@H](Cc1ccccc1)C(=O)O)[C@@H](C)CC)[C@@H](C)CC)[C@@H](C)CC)C(C)C)C(C)C)C(C)C
MIC (Escherichia coli, Pseudomonas aeruginosa, Klebsiella pneumoniae, Acinetobacter baumannii; clinical isolates; upper value for all): 4 µg/mL

C[N+]1=C2C(c3ccccc3)=[N+]([O-])c3ccccc3N2CCC1
MIC (Cutibacterium acnes; microbial growth): 16 µg/mL

CC[C@H](C)[C@H](NC(=O)[C@H](C)NC(=O)CNC(=O)[C@@H](N)CCSC)C(=O)N[C@@H](C)C(=O)N[C@@H](CCCCN)C(=O)N[C@@H](CC(C)C)C(=O)N[C@H](C(=O)N[C@@H](C)C(=O)N[C@@H](CCCCN)C(=O)N[C@@H](Cc1ccccc1)C(=O)NCC(=O)N[C@@H](Cc1c[nH]c2ccccc12)C(=O)N1CCC[C@H]1C(=O)N[C@@H](Cc1ccccc1)C(=O)N[C@H](C(=O)N[C@@H](CCCCN)C(=O)N[C@@H](CCCCN)C(=O)N[C@@H](Cc1ccccc1)C(=O)N[C@@H](Cc1ccc(O)cc1)C(=O)N[C@@H](CCCCN)C(=O)N[C@@H](CCC(N)=O)C(=O)N[C@H](C(=O)N[C@@H](CCSC)C(=O)N[C@@H](CCC(N)=O)C(=O)N[C@@H](CCCNC(=N)N)C(=O)N[C@H](C(=O)NCC(=O)N[C@@H](CCC(N)=O)C(=O)NCC(=O)N[C@@H](Cc1c[nH]c2ccccc12)C(=O)N[C@H](C(=O)N[C@H](C(=O)N[C@@H](CC(=O)O)C(=O)N[C@@H](CCC(N)=O)C(=O)N[C@H](C(=O)N[C@@H](CCC(=O)O)C(=O)N[C@@H](CCCCN)C(=O)N[C@@H](Cc1c[nH]c2ccccc12)C(=O)N[C@@H](CC(C)C)C(=O)N[C@@H](CCCCN)C(=O)N[C@@H](CCCNC(=N)N)C(=O)N[C@@H](Cc1c[nH]cn1)C(=O)O)[C@@H](C)CC)[C@@H](C)CC)[C@@H](C)O)[C@@H](C)CC)[C@@H](C)CC)[C@@H](C)CC)C(C)C
MIC (Bacillus subtilis subsp. subtilis; ATCC 23857; 10 h): 10.5 ± 0.1 µM

C[C@@H](c1ccn(Cc2ccc(Cl)c(Cl)c2)n1)[C@](O)(Cn1cnnn1)c1ccc(F)cc1F
MIC (Candidozyma auris; growth; 789 drug-resistant isolate; 24 h, 30 °C, ≥50% inhibition): 4 µg/mL

CC[C@H](C)[C@H](NC(=O)CNC(=O)[C@H](CCCCN)NC(=O)[C@H](C)NC(=O)[C@H](CCC(=O)O)NC(=O)[C@H](Cc1ccccc1)NC(=O)[C@H](CO)NC(=O)[C@H](CC(C)C)NC(=O)[C@@H](NC(=O)[C@H](CC(=O)O)NC(=O)[C@H](C)NC(=O)[C@@H](NC(=O)[C@@H](N)C(C)C)[C@@H](C)O)C(C)C)C(=O)N[C@@H](C)C(=O)N[C@H](C(=O)N[C@@H](CC(N)=O)C(=O)N[C@@H](Cc1c[nH]cn1)C(=O)N[C@@H](CO)C(=O)N[C@@H](C)C(=O)N[C@H]1CSSC[C@@H]2NC(=O)[C@H](C(C)C)NC(=O)CNC(=O)[C@H](CC(N)=O)NC(=O)[C@H](CCC(N)=O)NC(=O)[C@H](C)NC(=O)[C@H](CO)NC(=O)CNC(=O)CNC(=O)[C@H](CCCCN)NC(=O)[C@H](CCCCN)NC(=O)[C@H](CCCNC(=N)N)NC(=O)[C@H](CC(C)C)NC(=O)[C@H](C)NC(=O)[C@H]([C@@H](C)CC)NC(=O)[C@H](CSSC[C@@H](C(=O)N[C@@H](CCCNC(=N)N)C(=O)N[C@@H](CC(N)=O)C(=O)O)NC(=O)[C@H](C(C)C)NC2=O)NC(=O)[C@H](Cc2c[nH]cn2)NC(=O)[C@H](CC(C)C)NC(=O)[C@H](C)NC1=O)C(C)C
MIC (Salmonella typhimurium; broth microdilution; KCTC 1926; 16 h, 37 °C): > 100 µM

CC[C@H](C)[C@H](NC(=O)[C@H](CCCCN)NC(=O)[C@H](CC(N)=O)NC(=O)[C@H](Cc1c[nH]c2ccccc12)NC(=O)[C@H](Cc1ccccc1)NC(=O)[C@H](CCCCN)NC(=O)[C@H](CCCNC(=N)N)NC(=O)[C@H](CC(C)C)NC(=O)[C@H](Cc1c[nH]c2ccccc12)NC(=O)[C@H](CCCCN)NC(=O)[C@H](CCCNC(=N)N)NC(=O)[C@H](CC(C)C)NC(=O)CNC(C)=O)C(=O)N[C@@H](CCCCN)C(=O)N[C@@H](CCCNC(=N)N)C(N)=O
MIC (Citrobacter freundii; bacterial growth, broth microdilution; multidrug-resistant): 3.12 µM

C[C@@H](c1ccn(Cc2ccc(Cl)cc2Cl)n1)[C@](O)(Cn1cnnn1)c1ccc(F)cc1F
MIC (Candidozyma auris; growth; 791 drug-resistant isolate; 24 h, 30 °C, ≥50% inhibition): 16 µg/mL

CN[C@@H]1[C@H](O)[C@H](NC)[C@H]2O[C@]3(O)[C@H](O[C@@H]2[C@H]1O)O[C@H](C)C[C@@]3(O)CNCc1ccc(F)cc1
MIC (Streptococcus pneumoniae; R6): 1.6 to 3.1 µg/mL

CC[C@H](C)[C@H](NC(=O)[C@H](CCCN)NC(=O)[C@H](CC(N)=O)NC(=O)[C@H](CC(C)C)NC(=O)[C@H](Cc1ccccc1)NC(=O)[C@H](CCCN)NC(=O)[C@H](CCCNC(=N)N)NC(=O)[C@H](CC(C)C)NC(=O)[C@H](CC(C)C)NC(=O)[C@H](CCCN)NC(=O)[C@H](CCCNC(=N)N)NC(=O)[C@H](CC(C)C)NC(=O)CNC(C)=O)C(=O)N[C@@H](CCCN)C(=O)N[C@@H](CCCNC(=N)N)C(N)=O
MIC (Enterobacter aerogenes; broth microdilution; multidrug-resistant): 25 µM

CC[C@@H](C)[C@@H](NC(=O)[C@@H](C)NC(=O)[C@@H](CCCCN)NC(=O)[C@@H](CC(C)C)NC(=O)[C@@H](C)NC(=O)[C@H](NC(=O)[C@@H](Cc1c[nH]cn1)NC(=O)[C@@H](CC(C)C)NC(=O)[C@H](NC(=O)[C@H](NC(=O)[C@@H](CCCCN)NC(=O)[C@@H](CCCCN)NC(=O)[C@@H](C)NC(=O)[C@@H](CO)NC(=O)[C@@H](CCCCN)NC(=O)[C@@H](Cc1ccccc1)NC(=O)[C@H](NC(=O)[C@@H](CCCCN)NC(=O)[C@@H](CC(C)C)NC(=O)[C@@H](Cc1ccccc1)NC(=O)[C@@H](CO)NC(=O)[C@@H](CCCCN)NC(=O)[C@@H](Cc1c[nH]c2ccccc12)NC(=O)[C@@H](CCCCN)NC(C)=O)[C@H](C)O)[C@H](C)O)C(C)C)[C@H](C)O)C(=O)N[C@H](CO)C(=O)N[C@H](CO)C(N)=O
MIC (Acinetobacter baumannii; 985, Mueller-Hinton broth; 24 h, 37 °C): 0.8 µM

C[N+]1=C2C(c3ccc([N+](=O)[O-])cc3)=[N+]([O-])c3ccccc3N2CCC1
MIC (Clostridium sporogenes; microbial growth; ATCC3584): 0.125 µg/mL

CC(C)C[C@@H]1NC(=O)[C@H](C)NC(=O)[C@H](NC(=O)[C@H](CO)NC(=O)[C@@H](CCCCN)NC(=O)[C@@H](CC(C)C)NC(=O)[C@H](C)N)[C@H](C(N)=O)OC(=O)[C@H](CC(C)C)NC1=O
MIC (Bacillus subtilis Staphylococcus epidermidis; ATCC 14990; tested as TFA salt): 8 to 16 µg/mL

COc1ccc(C2=[N+]([O-])c3ccccc3N3CCCN=C23)cc1
MIC (Prevotella intermedia/nigrescens; ATCC 25611): 1 µg/mL

CO[C@H]1CC(O)=C2C(=O)c3c(cc(C)c(-c4c(C)cc5c(c4O)C(=O)C4=C(O)C[C@H](OC)[C@@H](O)[C@]4(C)O5)c3O)O[C@@]2(C)[C@@H]1O
MIC (Alternaria brassicicola; microbial growth; BCC): 5.1 µM

CC(C)C[C@H](NC(=O)[C@H](CCCCN)NC(=O)[C@H](C)NC(=O)[C@H](CC(C)C)NC(=O)[C@H](CCCCN)NC(=O)[C@H](CCCCN)NC(=O)[C@H](C)NC(=O)[C@H](CC(C)C)NC(=O)[C@H](CCCCN)NC(=O)[C@H](C)NC(=O)[C@H](CC(C)C)NC(=O)[C@H](CCCCN)NC(=O)[C@H](Cc1c[nH]cn1)NC(=O)[C@H](C)NC(=O)[C@@H](N)CC(=O)O)C(=O)N[C@@H](C)C(=O)N[C@@H](CCCCN)C(N)=O
MIC (Enterobacter aerogenes; ATCC 13048; 18 to 20 h): > 32 µM

CC[C@H](C)[C@H](NC(=O)[C@H](CO)NC(=O)[C@H](CO)NC(=O)[C@H](Cc1ccccc1)NC(=O)CN)C(=O)N[C@@H](Cc1ccccc1)C(=O)N[C@@H](CCCNC(=N)N)C(N)=O
MIC (Escherichia coli; ATCC 8739; with: 150 mM NaCl): > 128 µM

COc1ccc(C2=[N+]([O-])c3ccccc3N3CCN=C23)cc1
MIC (Clostridium sporogenes; microbial growth; ATCC3584): 0.125 µg/mL

CN(Cc1cc(C2CC2)on1)C(=O)c1cccc(-c2ccc(F)cc2)c1
MIC (Cryptococcus neoformans; microbial growth, broth dilution): 32 µg/mL

Cc1c2oc3c(C)ccc(C(=O)N[C@@H]4C(=O)N[C@H](C(C)C)C(=O)N5[C@H](C(=O)N(C)CC(=O)N(C)[C@@H](C(C)C)C(=O)O[C@@H]4C)[C@@H](O)C[C@@H]5C)c3nc-2c(C(=O)N[C@@H]2C(=O)N[C@H](C(C)C)C(=O)N3CC(=O)C[C@H]3C(=O)N(C)CC(=O)N(C)[C@@H](C)C(=O)O[C@@H]2CO)c(N)c1=O
MIC (Saccharomyces cerevisiae; broth microdilution; ATCC 204508; 16 to 48 h): > 9.33 µg/mL

Some of these lines once more:
CC(=O)OC1C(C)C(OC2CC3OCOC3C(C)O2)C=COC2(C)Oc3c(C)c(O)c4c(c3C2=O)C(=O)C=C(NC(=O)C(C)=CC=CC(C(C)OC(=O)C(C)(C)CC(=O)O)C(O)C(C)C(O)C1C)C4=O (stereo not drawn)
MIC (Serratia marcescens Serratia marcescens; NCTC 10211): > 128 µg/mL

CC[C@H](C)[C@H](NC(=O)[C@H](CCCCN)NC(=O)[C@H](CC(N)=O)NC(=O)[C@H](Cc1c[nH]c2ccccc12)NC(=O)[C@H](Cc1ccccc1)NC(=O)[C@H](CCCCN)NC(=O)[C@H](CCCNC(=N)N)NC(=O)[C@H](CC(C)C)NC(=O)[C@H](Cc1c[nH]c2ccccc12)NC(=O)[C@H](CCCCN)NC(=O)[C@H](CCCNC(=N)N)NC(=O)[C@H](CC(C)C)NC(=O)CNC(C)=O)C(=O)N[C@@H](CCCCN)C(=O)N[C@@H](CCCNC(=N)N)C(N)=O
MIC (Citrobacter freundii; bacterial growth, broth microdilution; multidrug-resistant): 3.12 µM

C[C@@H](c1ccn(Cc2ccc(I)cc2)n1)[C@](O)(Cn1cnnn1)c1ccc(F)cc1F
MIC (Candidozyma auris; growth; 791 drug-resistant isolate; 24 h, 30 °C, ≥50% inhibition): 1 µg/mL
